{"data": "Measured values collected from several papers", "note": "Parts stem from different laboratories: compare values within a part only. Substitutions count along the parent as printed.", "chain of UniProt Q9UK32 (whole entry, looked up)": "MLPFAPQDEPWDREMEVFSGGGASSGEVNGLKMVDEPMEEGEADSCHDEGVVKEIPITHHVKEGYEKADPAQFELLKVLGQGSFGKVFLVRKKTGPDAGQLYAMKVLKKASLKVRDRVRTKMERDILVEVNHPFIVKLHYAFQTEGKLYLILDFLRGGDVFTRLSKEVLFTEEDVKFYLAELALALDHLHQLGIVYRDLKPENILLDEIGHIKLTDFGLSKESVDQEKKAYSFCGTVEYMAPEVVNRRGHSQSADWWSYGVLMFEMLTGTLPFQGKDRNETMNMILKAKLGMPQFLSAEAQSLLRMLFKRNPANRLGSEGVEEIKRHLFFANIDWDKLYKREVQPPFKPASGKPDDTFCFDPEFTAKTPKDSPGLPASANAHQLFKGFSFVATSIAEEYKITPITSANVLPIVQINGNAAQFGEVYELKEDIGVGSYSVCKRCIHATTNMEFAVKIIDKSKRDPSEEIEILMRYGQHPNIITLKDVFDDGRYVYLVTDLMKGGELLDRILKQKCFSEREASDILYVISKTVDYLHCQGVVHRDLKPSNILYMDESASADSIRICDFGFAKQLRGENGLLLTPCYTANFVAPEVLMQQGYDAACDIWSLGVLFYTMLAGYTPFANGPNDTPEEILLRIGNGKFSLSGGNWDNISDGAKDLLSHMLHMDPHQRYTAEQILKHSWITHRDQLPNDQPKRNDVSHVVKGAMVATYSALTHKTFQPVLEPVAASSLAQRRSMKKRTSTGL"}
{"data": "Sample 1", "target": "Microphthalmia-associated transcription factor, full length (MITF, Homo sapiens, UniProt O75030-10, residues 1-413)", "technique": "protein-binding microarray", "molecule type": "hairpin DNA", "medium": "in vitro", "tested at": "not given", "notes": "whole hairpin DNA, median over replicate spots", "relative to": "not given", "reading": "higher = stronger binding"}
{"Strand": "GAGGCCTAGCACCTGCTGCCTCCTGGCAGCAGGTGCTAGGCCTCACACTC (5mC at 13)", "median fluorescence [a.u.]": 5530}
{"Strand": "GAGGCCTACCACGTGCTGCCTCCTGGCAGCACGTGGTAGGCCTCACACTC (5mC at 9)", "median fluorescence [a.u.]": 23600}
{"Strand": "CACTTAGCACGTCGTTTTGGTCCTCCAAAACGACGTGCTAAGTGACACTC (5mC at 13)", "median fluorescence [a.u.]": 5050}
{"Strand": "CACTTAGCACGGGATTTTGGTCCTCCAAAATCCCGTGCTAAGTGACACTC", "median fluorescence [a.u.]": 13000}
{"Strand": "GAGGCCCAGCACGTGCTGCCTCCTGGCAGCACGTGCTGGGCCTCACACTC (5mC at 7)", "median fluorescence [a.u.]": 20500}
{"Strand": "GAGGCCTAGCACGTGCTGCCTCCTGGCAGCACGTGCTAGGCCTCACACTC", "median fluorescence [a.u.]": 22600}
{"Strand": "CACTTAGCACCGGATTTTGGTCCTCCAAAATCCGGTGCTAAGTGACACTC (5mC at 11 33)", "median fluorescence [a.u.]": 4300}
{"Strand": "GAGGCCTAGCAGGTGCTGCCTCCTGGCAGCACCTGCTAGGCCTCACACTC", "median fluorescence [a.u.]": 7050}
{"data": "Sample 2", "target": "Histone acetyltransferase KAT6A, winged helix 2, GST fusion (KAT6A, Homo sapiens, UniProt Q92794, residues 85-181)", "technique": "protein binding microarray", "molecule type": "double-stranded DNA, one strand shown", "medium": "in vitro", "tested at": "not given", "notes": "8-mer, flanks averaged, mean of 2 arrays, mostly near background", "relative to": "not given", "reading": "higher = stronger binding", "Target sequence (chain)": "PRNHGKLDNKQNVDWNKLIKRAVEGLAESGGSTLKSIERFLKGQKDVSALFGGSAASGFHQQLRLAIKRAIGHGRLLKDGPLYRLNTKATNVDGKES"}
{"Strand": "TACGCCTA", "E-score": -0.0203}
{"Strand": "ACTATGTG", "E-score": -0.132}
{"Strand": "AGCATCCC", "E-score": -0.156}
{"Strand": "CTACGGAG", "E-score": 0.0243}
{"Strand": "ACTCTTGC", "E-score": -0.169}
{"Strand": "ACACTCGA", "E-score": 0.101}
{"Strand": "CCAAAGAG", "E-score": 0.0154}
{"Strand": "AGTAAGAG", "E-score": 0.0576}
{"data": "Sample 3", "target": "ABI1, truncated, D143A, DHFR fusion (Arabidopsis thaliana)", "technique": "DHFR PCA, deep sequencing", "medium": "yeast", "notes": "methotrexate growth selection, single substitutions", "together with": "(+)-ABA 0.11 µM", "relative to": "wild-type fitted maximum", "reading": "higher = stronger binding", "starting sequence": "PYL1, truncated, DHFR fusion (Arabidopsis thaliana); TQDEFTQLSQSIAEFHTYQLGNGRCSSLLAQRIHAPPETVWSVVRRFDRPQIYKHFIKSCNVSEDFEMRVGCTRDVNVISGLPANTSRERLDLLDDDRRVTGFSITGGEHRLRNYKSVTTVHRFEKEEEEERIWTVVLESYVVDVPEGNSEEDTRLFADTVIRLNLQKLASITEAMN"}
{"Substitution": "Q51L", "relative binding score [%]": 0.501}
{"Substitution": "V118W", "relative binding score [%]": -2.78}
{"Substitution": "M176G", "relative binding score [%]": 12.5}
{"Substitution": "L138E", "relative binding score [%]": -5.97}
{"Substitution": "R98G", "relative binding score [%]": -5.68}
{"Substitution": "D97S", "relative binding score [%]": 24.9}
{"Substitution": "I79D", "relative binding score [%]": 2.92}
{"Substitution": "E14K", "relative binding score [%]": 13}
{"data": "Mixed results"}
{"Compound": "CC(=O)N1CCC(c2ccc(C(=O)NC3=NCCN3)cc2C(F)(F)F)CC1", "target": "Ribosomal protein S6 kinase alpha-6, C-terminal kinase domain (RPS6KA6, Homo sapiens, UniProt Q9UK32)", "test": "cell-free assay, competition with immobilised ligand", "setting": "1 µM", "quantity": "remaining binding", "value": "98%"}
{"note": "Some of these lines once more (sample 3):"}
{"Substitution": "V118W", "relative binding score [%]": -2.78}
{"Substitution": "Q51L", "relative binding score [%]": 0.501}
{"Substitution": "I79D", "relative binding score [%]": 2.92}
